Published values from different studies.
A part holds a random share of what one study measured.

Block 1 — technique: aptamer microarray, sandwich; form: DNA with 2'F-ANA; matrix: in vitro; concentration: 200 nM; added: Cy3 exosite-II aptamer, 400 nM; reading: higher = stronger binding; strand: GGTTGGTGTGGTTGG
Target: Prothrombin, mature alpha-thrombin (F2, Homo sapiens, UniProt P00734)
Notes: whole 15-mer aptamer, many near background
Modification | mean fluorescence intensity
2'F-ANA at 1 2 3 5 12 13 | 88.7 a.u.
2'F-ANA at 5 7 10 14 | 100 a.u.
2'F-ANA at 3 4 6 7 9 10 12 13 | 226 a.u.
2'F-ANA at 2 3 4 6 9 12 13 | 561 a.u.
2'F-ANA at 1 2 4 9 10 15 | 51.8 a.u.
2'F-ANA at 2 3 4 5 6 9 12 14 15 | 53.4 a.u.
2'F-ANA at 2 6 8 11 13 15 | 273 a.u.
2'F-ANA at 3 4 5 7 11 15 | 85.9 a.u.
2'F-ANA at 1 3 4 6 7 9 11 12 13 14 15 | 66.8 a.u.
2'F-ANA at 1 2 4 5 8 11 13 | 52.4 a.u.
2'F-ANA at 2 6 9 11 13 15 | 224 a.u.
2'F-ANA at 1 3 5 10 12 13 14 | 59 a.u.
2'F-ANA at 1 2 3 5 6 7 8 9 12 14 | 50.6 a.u.
2'F-ANA at 1 3 4 5 8 10 11 12 13 14 15 | 49 a.u.
2'F-ANA at 1 2 4 6 7 8 10 11 14 | 45.6 a.u.
2'F-ANA at 1 2 3 5 7 11 14 | 46.3 a.u.
2'F-ANA at 4 6 7 8 11 12 13 14 | 95.8 a.u.
2'F-ANA at 3 4 5 7 8 10 12 13 14 | 49.5 a.u.

Block 2 — technique: RNA Bind-n-Seq; form: RNA; matrix: in vitro; concentration: 1 µM; notes: whole 134-nt RNA, ends assumed; added: 150 mM KCl; baseline: input library; reading: higher = stronger binding
Target: Ras GTPase-activating protein-binding protein 1, RRM domain (G3BP1, Homo sapiens, UniProt Q13283)
Sequence of UniProt Q13283 (whole entry, looked up): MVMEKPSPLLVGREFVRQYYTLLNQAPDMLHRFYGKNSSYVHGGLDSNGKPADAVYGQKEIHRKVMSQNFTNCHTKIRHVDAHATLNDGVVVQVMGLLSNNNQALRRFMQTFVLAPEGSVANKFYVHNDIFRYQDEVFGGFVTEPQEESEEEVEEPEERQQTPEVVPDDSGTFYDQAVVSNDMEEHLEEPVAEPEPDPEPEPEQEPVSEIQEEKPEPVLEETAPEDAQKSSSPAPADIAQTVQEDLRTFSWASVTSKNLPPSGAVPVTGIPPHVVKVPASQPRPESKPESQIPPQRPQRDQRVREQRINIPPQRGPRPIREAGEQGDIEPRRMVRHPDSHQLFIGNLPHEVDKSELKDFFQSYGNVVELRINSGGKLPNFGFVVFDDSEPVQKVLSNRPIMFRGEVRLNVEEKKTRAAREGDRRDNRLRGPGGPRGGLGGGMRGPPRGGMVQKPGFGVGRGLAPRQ
Strand | log2 enrichment
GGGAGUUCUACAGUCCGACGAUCAAGUCCUGUGCUACACAUCGUAUGUACCGAAUCGGGGAGGGGUUUUUGGGGUGGGGAAAGUAUUAUGUUACGCCGUUCGGAUCUGCACUUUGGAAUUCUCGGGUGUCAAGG | 0.84
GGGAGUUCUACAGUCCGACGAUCUCCUGUGCUACACAUCGUAUGUACCGAAUCGGGAAAAAAAGGGUUUUUGGGUUUUUGGGAAAGUAUUAUGUUACGCCGUUCGGAUCUGCAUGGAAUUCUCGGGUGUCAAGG | -0.0631
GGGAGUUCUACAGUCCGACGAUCACCAUACUUGACAACUUCUGAUUGAAUGCCCAUGCCCAAUGCCAACAUCCACGAACGCCAAUGACCAAUGCAGUACAAUGCCAGUGUUUCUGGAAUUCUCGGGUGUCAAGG | -0.0516
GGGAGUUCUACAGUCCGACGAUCAAGUCCUGUGCUACACAUCGUAUGUACCGAAUCGGGGAAAAGGGAAAAGGAAAAGGGAAAGUAUUAUGUUACGCCGUUCGGAUCUGCACUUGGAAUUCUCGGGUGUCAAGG | -0.162
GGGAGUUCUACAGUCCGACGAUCUCCUGUGCUACACAUCGUAUGUACCGAAUCGGUUUUUUGGGGUUUUUUGGGGUUUUUUGGAAAGUAUUAUGUUACGCCGUUCGGAUCUGCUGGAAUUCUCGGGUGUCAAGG | -0.108
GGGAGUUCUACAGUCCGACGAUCUGUCUCGAGCAGGGGACAAGACGUUCGAGGAGUACCUGGAUGAGUAUUACCGGCUGGACUACGAGGACAUCAUCGACGACCUGCCCUGUCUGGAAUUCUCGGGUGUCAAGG | -0.28
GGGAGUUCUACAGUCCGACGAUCUCCUGUGCUACACAUCGUAUGUACCGAAUCGGGUUUUUUGGGUUUUUUGGGUUUUUUGGAAAGUAUUAUGUUACGCCGUUCGGAUCUGCAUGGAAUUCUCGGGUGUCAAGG | -0.0874
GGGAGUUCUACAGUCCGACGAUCCCUCAAGUCCUGUGCUACACAUCGUAUGUACCGAAUCGGGAGGGAGGGAGGGAAAGUAUUAUGUUACGCCGUUCGGAUCUGCACUUCCAGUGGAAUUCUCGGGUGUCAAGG | 1.08
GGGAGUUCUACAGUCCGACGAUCGUCCUGUGCUACACAUCGUAUGUACCGAAUCGGGGUGGGGUUUUUGGGGAAAAAGGGGAAAGUAUUAUGUUACGCCGUUCGGAUCUGCACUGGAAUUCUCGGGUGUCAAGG | 0.806

Block 3 — technique: RNA Bind-n-Seq; form: RNA; matrix: in vitro; concentration: 365 nM; baseline: no-protein control; reading: higher = stronger binding
Target: RNA binding protein fox-1 homolog 2, RRM domain, GST-SBP tag (RBFOX2, Homo sapiens, UniProt O43251-10, residues 100-194)
Notes: natural RNA segment, single round, ends assumed
Target sequence (chain): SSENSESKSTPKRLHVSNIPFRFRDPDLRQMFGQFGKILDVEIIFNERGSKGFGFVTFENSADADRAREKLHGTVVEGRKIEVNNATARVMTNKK
Strand | RBNS enrichment (R)
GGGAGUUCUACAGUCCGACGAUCUUAGAAAGUCCAAGUGUUCAGGACUUUUAUACCUGUUAUACUUUGGCUUGGUUUCCAUGAUUCUUACUUUAUUAGCCUAGUUUAUCACCAAUAAUACUUGACGGAAGGCUUGGAAUUCUCGGGUGCCAA | 0.471
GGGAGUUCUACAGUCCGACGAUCUGGGAUUAAAGGCGUGCGCCACCACCACCCAGCUGUUACCACACUCUUAUUUGGAAGACUAGCAUGACCUUGCUGUUGAUGUGCCCAUGUAGCAGGGUAAAAGAAAAUUCUGGAAUUCUCGGGUGCCAA | 3.61
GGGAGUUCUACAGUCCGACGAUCUGUACCCUGUACACGUGUUCAUGCUGUGUCUGGCUCUCAUCUGCACAAUCGUGCAUAGAAUUGCCUCAAGUCCUGGUGAGAGAGAUGCCGUGGUACUUUUCCAUUUAGAUUGGAAUUCUCGGGUGCCAA | 0.364
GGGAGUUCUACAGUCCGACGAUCUCACCUUGCUUCUGGGUUGUGUUUCUUCUCUUACUACCUCACUGCACCUGGACACUAGAGUGGAUGAAUGUCUGGAGUUCACCUGCAUUUGGACUGUGUGAUUGUGCCUCUGGAAUUCUCGGGUGCCAA | 4.57
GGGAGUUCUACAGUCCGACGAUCAGGCUGGUCUCAAACUCCUGACCUCAAGUGAUCCACCUGCCUCGGCCUCCCAAAGUGCUGGGAUUACAGGUGUGAGCCACUGUGCCCAGCCCAAACUUUUAAGAUGACCCUGGAAUUCUCGGGUGCCAA | 0.344
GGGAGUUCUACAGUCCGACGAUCUAUACACUCUUUGGUUCGUAUAGGCCAUAUUCCAACUGGCUUUUUAGUAAUAGAAAUCCAGUAUAUAAUGUAUCAAAUACAAUUGAGGUUCUAACCUAGUGUGUUAAUUUUGGAAUUCUCGGGUGCCAA | 0.368
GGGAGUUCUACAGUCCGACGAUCAUCAUAUGAAUGUUCUUGGUUCCCAUUGUGACGAUUAUUUAUUUCUGUAAAAUUUGUUUAGAAGUACGUUUUUGCAUUAUUCAUAUGCUUCCCAGAGAAGCUCAUUUAGUUGGAAUUCUCGGGUGCCAA | 1.76
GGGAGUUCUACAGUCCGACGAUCAAAAUGAUUCCAUUAAUCUUACUCAGAAGACAAAUAAGGAGGUUCUGAUGAAAUCUCUGAAAAAAAAUAAUAAUUUCACACCAUGGCUGCCCUAAAAGGAUCAUUUUAGUUGGAAUUCUCGGGUGCCAA | 0.529

Block 4 — technique: RNA Bind-n-Seq; form: RNA; matrix: in vitro; concentration: not given; notes: RNA with constant flanks, ends assumed; baseline: input RNA pool; reading: higher = stronger binding
Target: RING finger protein unkempt homolog, zinc fingers 1-6, GST-SBP tag (UNK, Homo sapiens, UniProt Q9C0B0, residues 30-357)
Construct (chain): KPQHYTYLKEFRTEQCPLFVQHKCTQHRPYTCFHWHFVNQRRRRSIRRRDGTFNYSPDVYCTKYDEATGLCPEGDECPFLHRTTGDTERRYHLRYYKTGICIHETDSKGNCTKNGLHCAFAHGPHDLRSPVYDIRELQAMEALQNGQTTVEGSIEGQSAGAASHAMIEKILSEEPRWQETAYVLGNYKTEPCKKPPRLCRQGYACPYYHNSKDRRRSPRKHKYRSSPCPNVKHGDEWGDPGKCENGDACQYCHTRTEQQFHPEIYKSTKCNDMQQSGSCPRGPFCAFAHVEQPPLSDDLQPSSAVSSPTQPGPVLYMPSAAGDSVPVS
Strand | bound/input enrichment [ratio]
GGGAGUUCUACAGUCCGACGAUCAAGUCAAUGCAGUCCCACUUACUCAAGCUGCAGCUGAAAGGCUAUCCCAGUACGUGUUGGCCGUUCCUGAGAGAGUUAUAGCUGGUGUUGCCUUGUGGUCUACCCCUUGUUUCAGGCCUCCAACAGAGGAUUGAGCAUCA | 0.101
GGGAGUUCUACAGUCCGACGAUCGCAGAACUCCUAAAAAAUGCAGAUGAAUUAGUCAAACAGAAAAUUCAUCCCACAUCAGUUAUCCGUGGCUAUCGACUUGCUUGCAAGGAAGCAGUGCGUUAUAUCAAUGAAAACCUAAUUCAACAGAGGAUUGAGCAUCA | 0.069
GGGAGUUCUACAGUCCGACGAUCGCACAUGCCACUGUCACCAAAACAAACAACUACCACUUUCCAAAUUUCAUUCAGAACCAUUUCCGUGUUUUCCUAUUCCCUACCCCUCCCACUACUUUCAAUGAUGAAAUACCCUAAGUUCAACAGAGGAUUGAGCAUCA | 1.01
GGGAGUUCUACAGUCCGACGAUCUCUCCUGAUCUAAUGAGCUUUAUGAUGGAGUUGAAGAUGCUUUUGGAAGUUGCCUUAAAGAACCGACAAGAGCUGUAUGCACUACCUCCUCCUCCCCAGUUCUACUCAAGCCUUAUUGAACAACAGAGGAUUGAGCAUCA | 0.0974
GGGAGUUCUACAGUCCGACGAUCCUAUAUCUGAAACUUACAUUUGACCUCAUAGAGAAAGGCUAUCUAGUGUUAAAGAGCUCCCGCUACAAAGUAGUUCCUGUUUCGCUCUCAGAGGUUUAUUUACUCCAGUGCAAUAUGAAGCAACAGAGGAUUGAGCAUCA | 1.01
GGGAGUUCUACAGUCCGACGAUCCCAGAAGUGGAAUCUUUACAGGACUAUAAGAAUACAUUUCCCAAAUGGAAACCAGGAAGCCCCGCAUCCCAUGUCAAAAACUUGGAUGAAAAUGGCUUGGAUUUGCUCUCGAAAAUGUUACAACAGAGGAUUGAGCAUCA | 0.134
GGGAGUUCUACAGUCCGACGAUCGAUAUCCAAGCUUGCGUGGACCAUGUGAACCUGGUGGUGCAAGAGGAACAUGAGAGGAUUUCCGCCAUUGGUUUAAUUAAUGAAGCCCUGGAUGAAGGUGAUGCCCAAAAGACUCUGCAGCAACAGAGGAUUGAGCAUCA | 0.251
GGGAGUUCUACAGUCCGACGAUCAGUGAAAAUCUACCAGGCUCCUCUUGUGAGGGGCAGUUCCAGUGUGUCCAUGUAGGGUUCCCGCUACAUCGUUCUAGAAGAUAUGAGUUAAUCUCUAAUAAAAGGAAAAUUAAGACUGGGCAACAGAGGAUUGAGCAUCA | 0.674

A few entries again (block 3):
Strand | RBNS enrichment (R)
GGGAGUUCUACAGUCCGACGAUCUUAGAAAGUCCAAGUGUUCAGGACUUUUAUACCUGUUAUACUUUGGCUUGGUUUCCAUGAUUCUUACUUUAUUAGCCUAGUUUAUCACCAAUAAUACUUGACGGAAGGCUUGGAAUUCUCGGGUGCCAA | 0.471
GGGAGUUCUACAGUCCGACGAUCUGGGAUUAAAGGCGUGCGCCACCACCACCCAGCUGUUACCACACUCUUAUUUGGAAGACUAGCAUGACCUUGCUGUUGAUGUGCCCAUGUAGCAGGGUAAAAGAAAAUUCUGGAAUUCUCGGGUGCCAA | 3.61
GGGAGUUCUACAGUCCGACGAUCUGUACCCUGUACACGUGUUCAUGCUGUGUCUGGCUCUCAUCUGCACAAUCGUGCAUAGAAUUGCCUCAAGUCCUGGUGAGAGAGAUGCCGUGGUACUUUUCCAUUUAGAUUGGAAUUCUCGGGUGCCAA | 0.364
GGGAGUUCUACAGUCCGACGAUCUCACCUUGCUUCUGGGUUGUGUUUCUUCUCUUACUACCUCACUGCACCUGGACACUAGAGUGGAUGAAUGUCUGGAGUUCACCUGCAUUUGGACUGUGUGAUUGUGCCUCUGGAAUUCUCGGGUGCCAA | 4.57
